Experimental data pooled from the literature.
Every numbered part comes from another study and shows a few of its results, in no order. Positions count from the first letter of the parent shown.

Study 1
Target: CCNE2, cyclin fold, Cln2 fusion (human)
Technique: yeast growth competition, sequencing
Sample: yeast
Setting: weak parent motif
Baseline: not given
Reading: higher = stronger binding
Starting sequence: MASTL docking peptide (human); PMIAKNLMCELDE; partner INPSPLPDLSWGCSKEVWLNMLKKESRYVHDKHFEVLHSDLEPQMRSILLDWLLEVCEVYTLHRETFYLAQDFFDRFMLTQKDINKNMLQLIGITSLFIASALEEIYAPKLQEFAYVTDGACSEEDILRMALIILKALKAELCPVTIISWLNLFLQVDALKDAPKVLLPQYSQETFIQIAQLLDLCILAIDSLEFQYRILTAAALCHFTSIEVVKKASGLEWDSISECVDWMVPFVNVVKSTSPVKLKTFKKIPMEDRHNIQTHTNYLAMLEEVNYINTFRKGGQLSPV
Substitution	normalised enrichment score
L11A	0.122
C9S	-0.151
L7R	-0.257
M8F	0.0244
A4Q	-0.353
C9V	-0.0904
D12Q	0.246

Study 2
Target: Fragile X messenger ribonucleoprotein 1, C-terminal low-complexity region (Fmr1, Mus musculus, UniProt P35922)
Technique: RNA Bind-n-Seq
Form: RNA
Sample: in vitro
Tested at: 200 nM
Setting: whole 134-nt RNA, ends assumed
Together with: 150 mM KCl
Baseline: input library
Reading: higher = stronger binding
Constant ends, left off below: GGGAGUUCUACAGUCCGACGAUC … UGGAAUUCUCGGGUGUCAAGG
Oligonucleotide	log2 enrichment
UCCUCAAGUCCUGUGCUACACAUCGUAUGUACCGAAUCGGGGAGGGAGGAGGAAAGUAUUAUGUUACGCCGUUCGGAUCUGCACUUCCAG	0.346
CUCAAGUCCUGUGCUACACAUCGUAUGUACCGAAUCGGGUGGGAGGGUUUGGGAAAGUAUUAUGUUACGCCGUUCGGAUCUGCACUUCCA	1.22
GCAGGAAGUAAAAACAAAUGGAAAUGAAACGGAUAGUGGCAGGGGUGGGGGUUGCUAAGGAAAGGGUGGGAUGGGAGUGGGUAAAGAGUU	-0.00583
CUGUGCUACACAUCGUAUGUACCGAAUCGGGGAAAAAAAGGGGAAAAAAAGGAAAAAAAGGGAAAGUAUUAUGUUACGCCGUUCGGAUCU	-0.407
UGGCCCUGGCGGCAUGCGGGGAGGAAGAGGUGGCCUCAUGGAUCGUGGUGGUCCCGGUGGAAUGUUCAGAGGUGGCCGUGGUGGAGACAG	-0.0777
UCAAGUCCUGUGCUACACAUCGUAUGUACCGAAUCGGAAAGGUUUUUUUGGUGGAAAGUAUUAUGUUACGCCGUUCGGAUCUGCACUUCC	-0.659
CCUGUGCUACACAUCGUAUGUACCGAAUCGGGGAAAGGGGUUUUUGGGGUUUUUUUGGGGAAAGUAUUAUGUUACGCCGUUCGGAUCUGC	0.34
CCUCAAGUCCUGUGCUACACAUCGUAUGUACCGAAUCGGGAAGGAAGGAAGGGAAAGUAUUAUGUUACGCCGUUCGGAUCUGCACUUCCA	-0.325

Study 3
Target: Histone acetyltransferase KAT6A, both winged helices, GST fusion (KAT6A, Homo sapiens, UniProt Q92794, residues 1-181)
Technique: protein binding microarray
Form: double-stranded DNA, one strand shown
Sample: in vitro
Tested at: not given
Setting: 8-mer, flanks averaged, mean of 2 arrays, mostly near background
Baseline: not given
Reading: higher = stronger binding
Residues (chain): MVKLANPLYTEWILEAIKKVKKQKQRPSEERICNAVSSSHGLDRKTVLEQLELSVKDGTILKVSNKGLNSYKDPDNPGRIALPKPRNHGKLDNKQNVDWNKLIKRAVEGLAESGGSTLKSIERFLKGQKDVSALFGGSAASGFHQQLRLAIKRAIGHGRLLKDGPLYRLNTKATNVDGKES
Oligonucleotide	E-score
ACAAAACA	-0.193
GCGTCATA	0.0915
GCGGTTAC	0.292
GCAGACCA	-0.0707
GTAAGCGA	0.0493
AATTAATC	-0.0334
CGTCTTCA	0.0257
GACGGAAA	0.293
TACAGCCA	-0.18
AGACGGGA	0.199

Other studies, line by line
Molecule	target	assay	system	setting	how to read	endpoint	value
PhoQ, residues 284 288 289 292 302 303 TTSMTC	PhoP, residues 12 14 15 18 19 LWHSL (Escherichia coli, UniProt P23836)	Sort-seq, refers to: YFP reporter	E. coli	PhoQ-PhoP variant library, together with: 10 µM Mg2+	baseline: high Mg2+ state, higher = stronger signaling	fold induction	9.36

Repeated from above (study 3):
Oligonucleotide	E-score
ACAAAACA	-0.193
GCGTCATA	0.0915
GCGGTTAC	0.292
GCAGACCA	-0.0707
